Measured values pooled from the literature.
Protocols differ between the studies behind these lines. ± gives the spread as reported.
Organism: Plasmodium yoelii

| SMILES | test | system | conditions | how to read | endpoint | result |
| --- | --- | --- | --- | --- | --- | --- |
| CC(C)(C)OC(=O)N1CCC(Oc2ccc3c(=O)c4c(F)cc(Cl)cc4[nH]c3c2)CC1 | antimalarial activity | CF1 mouse | oral, once daily for 4 days | – | ED50 | 0.32 mg/kg |
| Cc1[nH]c(/C=C2\N=C(c3ccc[nH]3)C3=C2OCCO3)cc1Cc1ccc(Cl)cc1.Cl | – | CF1 mice | oral, 10 mg/kg daily for 4 days, day 5 | baseline: vehicle | parasitaemia reduction | 63.9% |
| CC(C)CC1c2[nH]c3ccccc3c(=O)c2CN1C(=O)OC(C)(C)C (centres unmarked) | – | 17XL | 384-well | – | IC50 | 638 ± 10 nM |
| FC(F)(F)Oc1ccc(OC2=CC(c3ccc[nH]3)=N/C2=C\NC23CC4CC(CC(C4)C2)C3)cc1 | – | CF1 mice | oral, 25 mg/kg daily for 4 days, day 5 | – | parasitemia reduction | > 80% |
| CSc1ccc(C=CC(=O)NC(=O)c2ccccc2O)cc1 | – | 17XL | 384-well | – | IC50 | 283 ± 154 nM |
| CCCOC1=CC(c2ccc[nH]2)=N/C1=C\NC12CC3CC(CC(C3)C1)C2 | – | CF1 mice | oral, 25 mg/kg daily for 4 days, day 5 | – | parasitemia reduction | > 80% |
| O=c1c2cc(F)c(Oc3ccc(OC(F)(F)F)cc3)cc2[nH]c2cc(Cl)cc(F)c12 | antimalarial activity | CF1 mouse | oral, once daily for 4 days | – | ED50 | 0.19 mg/kg |
| Cc1nc2ccccc2c(O)c1-c1ccc(Cl)cc1 | – | 17XL | 384-well | – | IC50 | 748 ± 30 nM |
| CCC1=C(CC)/C(=C/c2[nH]c(Cc3ccc(Cl)cc3)cc2Cc2ccc(Cl)cc2)N=C1c1ccc[nH]1 | – | CF1 mice | oral, 10 mg/kg daily for 4 days, day 5 | baseline: vehicle | parasitaemia reduction | 100% |
| O=c1c2c([nH]c3cc(Oc4ccc(OC(F)(F)F)cc4)ccc13)CCCC2 | antimalarial activity | CF1 mouse | oral, once daily for 4 days | – | ED50 | 2.9 mg/kg |
| COC1=CC(c2ccc[nH]2)=N/C1=C\c1[nH]c(Cc2ccc(OC(F)(F)F)cc2)cc1Cc1ccc(OC(F)(F)F)cc1 | – | CF1 mouse | oral, 80 mg/kg single dose, day 5 | – | parasitaemia reduction | 100% |
| Cc1ccc2[nH]c3ccccc3c(=O)c2c1 | – | 17XL | 384-well | – | IC50 | 1100 ± 232 nM |
| COC1=CC(c2ccc[nH]2)=N/C1=C\c1[nH]c(-c2ccccc2)cc1-c1ccccc1 | – | CF1 mice | oral, 25 mg/kg daily for 4 days, day 5 | baseline: vehicle | parasitaemia reduction | 100% |
| O=c1c2ccc(OCc3ccc(OC(F)(F)F)cc3)cc2[nH]c2cc(Cl)cc(F)c12 | antimalarial activity | CF1 mouse | oral, once daily for 4 days | – | ED50 | 0.16 mg/kg |
| Cc1[nH]c(C)c(-c2ccc(Oc3ccc(F)cc3)cc2)c(=O)c1Cl | – | 17XL | 384-well | – | IC50 | 38 ± 23 nM |
| O=c1c2c([nH]c3cc(Oc4ccc(OC(F)(F)F)cc4)c(F)cc13)CCCC2 | antimalarial activity | CF1 mouse | oral, once daily for 4 days | – | ED50 | 1.8 mg/kg |
| CCOC1=CC(c2ccc[nH]2)=N/C1=C\c1cc(Cc2ccc(OC(F)(F)F)cc2)c(C)[nH]1.Cl | – | CF1 mice | oral, 10 mg/kg daily for 4 days, day 5 | baseline: vehicle | parasitaemia reduction | 100% |
| O=c1c2ccc(OCc3ccc(C(F)(F)F)cc3)cc2[nH]c2cc(Cl)cc(F)c12 | antimalarial activity | CF1 mouse | oral, once daily for 4 days | – | ED50 | 0.38 mg/kg |
| CCOC1=CC(c2ccc[nH]2)=N/C1=C\c1cc(Cc2ccc(Cl)cc2)c(C)[nH]1.Cl | – | CF1 mice | oral, 10 mg/kg daily for 4 days, day 5 | baseline: vehicle | parasitaemia reduction | 100% |
| CCCCc1ccc(-c2ccc(-c3c(C)[nH]c(C)c(Br)c3=O)cn2)cc1 | – | 17XL | 384-well | – | IC50 | 94 ± 8 nM |

Excerpt of the above:
| SMILES | test | system | conditions | how to read | endpoint | result |
| --- | --- | --- | --- | --- | --- | --- |
| Cc1[nH]c(/C=C2\N=C(c3ccc[nH]3)C3=C2OCCO3)cc1Cc1ccc(Cl)cc1.Cl | – | CF1 mice | oral, 10 mg/kg daily for 4 days, day 5 | baseline: vehicle | parasitaemia reduction | 63.9% |
| CC(C)CC1c2[nH]c3ccccc3c(=O)c2CN1C(=O)OC(C)(C)C (centres unmarked) | – | 17XL | 384-well | – | IC50 | 638 ± 10 nM |
| FC(F)(F)Oc1ccc(OC2=CC(c3ccc[nH]3)=N/C2=C\NC23CC4CC(CC(C4)C2)C3)cc1 | – | CF1 mice | oral, 25 mg/kg daily for 4 days, day 5 | – | parasitemia reduction | > 80% |
